Measurements from different studies.
“And” joins repeats or separate records; there may be more than shown.
Technique: steady-state kinetics
B1: SCO6712 S292F (Streptomyces coelicolor, UniProt Q9XAL8); chain AKGITARTAPAGGEVRHLKMYAEKLADGQMGYGFEKGKASVPGPLIEVNEGDTLHIEFTNTMDVRASLHVHGLDYEISSDGTAMNKSDVEPGGTRTYTWRTHKPGRRDDGTWRPGSAGYWHYHDHVVGTEHGTGGIRNGLYGPVIVRRKGDVLPDATHTIVFNDMTINNRKPHTGPDFEATVGDRVEIVMITHGEYYHTFHMHGHRWADNRTGILTGPDDPSRVIDNKITGPADSFGFQIIAGEGVGAGAWMYHCHVQFHSDMGMVGLFLVKKPDGTIPGYEPHEHGGATAKSGESGEPTGGAAAHEHEH
B2: enzyme (Populus trichocarpa, UniProt A0A2K1ZZ60); chain ITRQYTFNITHKNFTRLCHTRSLVTVNGQFPGPRLVAREGDQVLVKVVNHVAENITIHWHGVRQLTSGWADGPAYVTQCPIQTGQAYTYNFTITGQRGTLLWHAHISWLRSSLYGPIIILPKLNESYPFKKPYKEIPILFGEWFNVDPEAVIAQALQTGAGPNVSDAYTINGLPGPLYNCSAKDTYKLKVKPGKTYLLRLINAALNDELFFSIANHTLTVVEADAVYVKPFEADTLLISPGQTTNVLLKTKPHLPNATFYMFAGPYFSGMGSFDNSTTAGVLVYKHPSSNNHLKKLPTLKPTLPPINATGFVANFTKKFRSLANAKFPANVPQTVDRKFFFTVGLGTNPCPKNTTCQGPNNNTKFAASINNVSFVLPSVALLQSYFFGQSNGVFTSDFPQNPTIPFNYTGTPPNNTMVSNGTKAVVLTFNTSVELVMQGTSIVAAESHPLHLHGFNFFVVGQGFGNYDPNKDPSNFNLVDPMERNTAGVPAGGWIAIRFLADNPGVWFMHCHLDVHTSWGLRMAWIVLDGPQPNQKIPPPPSDLPKC
B3: enzyme (Methylibium petroleiphilum, UniProt A2SI32); chain PFAQIYLIEGRTEEQKRAVIEKVTQAMMEAVGAPKENVRVWIHDVPKENWGIGGVSAKALGR
B4: enzyme M389A (Pediococcus pentosaceus, UniProt A0AB73HHR8); chain MKNYTDYFFDEQAFDLHDGGYVPLEVSDAPEKPLNVPPLLKPDKETATDVYYTVTAEAGETQLLPGAKTKTWGYNTSLLGQTIVYRRGQHTHVTLKNTLPELTTFHWHGANVSGPYVDGGCHAPVYPGESKHIDFTLEQPATTLWLHAHPCPSTAEQVWHGLAAMVIVKDDHEASLPLPRNYGVDDIPVILQDRRFHENNQWDYRADYDPDGVAGPTAMINGTINPYFDVTTQKVRLRFLDGANRREWRLHFSDDLPFTQIGGDGSLLPEPVKFTHLMLTCAERAEVIVDFGQYHEGDEVTLYTDDVPLLKFRIHAFKPDQTTLPDKLFDVKAPVVDPALPVRHVVMQGMDEGVAIDGKKFAMQRIDATQPIGKAQYWDVTNSNDAPGAVHPFHVHGTQFLVLSRNGHAPYPNEHGFKDTIGVNPGETVRLLVRFDLPGVYMYHCHIIEHEDGGMMAQIETFDPAKPKQEYKLMDMDTLMMALAKERGVKPSEIWMGGMQSYEKMGMKM
B5: enzyme (Burkholderia cenocepacia, UniProt B4E589); chain MTGYDRQSISDTTAKILLEVQAVHFNAEKPFIFTSGWASPVYIDCRKLISYPRVRRALMEMAETTITRDIGFEQIDAVAGGETAGIPFAAWIADRMMVPMQYVRKKPKGFGRNAQIEGHLEEGSRVLLVEDLTTDSRSKINFVNALRTAGATVNHCFVLFHYNIFKESVSVLKDIDVDLHALATWWDVLRVAKASGYFETKTLDEVEKFLHAPAEWSAAHGGATAPKE
B6: aspC A106G/A17N/A218G/A278L/A281T/A8Q/D18E/F210I/F212I/F350Y/G15S/G249S/I187A/I279A/I29V/I33V/I341V/I5L/I68L/I71L/L46M/M321L/M380L/N285S/N30D/N64T/S129T/S135A/S273G/S351L/T100S/V125I/V136I/V375I/Y244C (Escherichia coli, UniProt P00509); chain MFENLTAQPADPILSLNELFRADERPGKVDLGVGVYKDETGKTPVMTSVKKAEQYLLENETTKTYLGLDGLPEFGRCTQELLFGKGSALINDKRARTAQSPGGTGGLRVAADFLAKNTSVKRVWISNPTWPNHKAIFNSAGLEVREYAYYDAENHTLDFDALINSLNEAQAGDVVLFHGCCHNPTGADPTLEQWQTLAQLSVEKGWLPLIDIAYQGFGRGLEEDAEGLRAFAAMHKELIVASSCSKNFSLYNERVGACTLVAADSETVDRAFGQMKALARTNYSSPPAHGASVVATILSNDALRAIWEQELTDMRQRIQRLRQLFVNTLQEKGANRDFSFVIKQNGMFSYLGLTKEQVLRLREEFGVYAVASGRINVAGLTPDNMAPLCEAIVAVL
B7: ART1 (Homo sapiens, UniProt P52961); chain QSHPITRRDLFSQEIQLDMALASFDDQYAGCAAAMTAALPDLNHTEFQANQVYADSWTLASSQWQERQARWPEWSLSPTRPSPPPLGFRDEHGVALLAYTANSPLHKEFNAAVREAGRSRAHYLHHFSFKTLHFLLTEALQLLGSGQRPPRCHQVFRGVHGLRFRPAGPRATVRLGGFASASLKHVAAQQFGEDTFFGIWTCLGAPIKGYSFFPGEEEVLIPPFETFQVINASRLAQGPARIYLRALGKHSTYNCEYIKDKKCKSGPCHLDNS
B8: enzyme (Chlamydomonas reinhardtii, UniProt A0A2K3D977); chain ASDSVLAVWRKADAVCFDVDCTITVNDSLDLLAEFMGVKEQVEILTNKAMDGSLSLEQALEERLNIINCSPDDIKRFIKAHPPASRMAPGIKELINSLQARGKAIYLISGGFRELTLPIAAYLGIPKENVFANRMNWQWDDETGMPTKLVGFDMSEPTAHNQGKPQAIARIRQRNPYNTVVMIGDGITDLEAVQTTGGADLFIGSGVVVERPAVAREADWYVYDYTDLLRTMARYSVAMVGSGAWACAAVRMIAQNTQVDDAADEFVDEVRMWVYEEDFEGKKLTEVINQTHTNPKYFPGFDLGPNVVAVPNIVDAVADADLIVFCAPHQFLHHICKQLVGKIKPGAAAISLTKGMRVRPEGPQLISQMVRRLLGIDCCVLMGANIATDIGREQLSEAVIGYDNLDAATLFQKIFQRPYFRVNLLPDPVGAEMCGTLKNIVALGAGMVDGLGLGPNSKAAIIRQGLVEMRAFSKALYPSVRDDTFMESCGVGDLVATCYGGRNRLVACEWTKAQMEGKPRTFEDLETDLLKGQKLQGVLTSNEVQEILKVRGWESQYPLFTTVNRIINGYLPPKYVVEFVAGAKYHIRRPGTDDEEIVPVRPKRPAAAGGVATAPILAA
B9: Comt (Rattus norvegicus, UniProt P22734); chain MPLAAVSLGLLLLALLLLLRHLGWGLVTIFWFEYVLQPVHNLIMGDTKEQRILRYVQQNAKPGDPQSVLEAIDTYCTQKEWAMNVGDAKGQIMDAVIREYSPSLVLELGAYCGYSAVRMARLLQPGARLLTMEMNPDYAAITQQMLNFAGLQDKVTILNGASQDLIPQLKKKYDVDTLDMVFLDHWKDRYLPDTLLLEKCGLLRKGTVLLADNVIVPGTPDFLAYVRGSSSFECTHYSSYLEYMKVVDGLEKAIYQGPSSPDKS
B10: enzyme (UniProt A0A097IUE6); chain TKRAMMATVSSLGIDKATGITKPSKVHRNLPYPEVFEHEQKNKEGEVTKNGTFCVSTGAFTGRSPKDKYFVHQSPSCDTLDWGKINVGVAPDVYKNIYEKAVKHYNENVDSMYVFDGYCGTSPKSRKNVRIITELAWQHHFAKNMFIRPDSEKEVENFNPDFTIINACKVLNKDYKELGLNSDVAVIFNVEEKMAVITGTWYGGEMKKGIFSMMNYWLPLDGIMAMHCSANKGKGGDTALFFGLSGTGKTTLSADPDRYLIGDDEHGWDDHGIFNFEGGCYAKTVNLSKDNEPEIYDAIKRDALLENVIIKSDGEPDYTDTSRTENTRVSYPIYHIDNHEPSGMGGHPTSIIFLTCDAFGVLPPVSRLSGGQAMYHFLSGYTAKVAGTERGVTEPTPNFSACFGAAFLTLHPTKYADLLQKKLDKHQTQCFLINTGWTGGGYGVGKRMSIKATRACVNAVLDGSINKANFTNDEVFGFEVPAELPEVPAQVLNPRAAWSDKEKYDNTRIKLAGMFKDNFKKFIKEGATDYSSYGPK
B11: enzyme (Arabidopsis thaliana, UniProt Q9C969); chain GSFGMLSRRTLGTDMPVMAQIRSLMAELTNPMSLAQGVVHWQPPQKALEKVKELVWDPIISSYGPDEGLPELRQALLKKLREENKLTNSQVMVTAGANQAFVNLVITLCDAGDSVVMFEPYYFNSYMAFQMTGVTNIIVGPGQSDTLYPDADWLERTLSESKPTPKVVTVVNPGNPSGTYVPEPLLKRIAQICKDAGCWLIVDNTYEYFMYDGLKHCCVEGDHIVNVFSFSKTYGMMGWRLGYIAYSERLDGFATELVKIQDNIPICAAIISQRLAVYALEEGSGWITERVKSLVKNRDIVKEALEPLGKENVKGGEGAIYLWAKLPEGHRDDFKVVRWLAHRHGVVVIPGCASGSPGYLRVSFGGLQEVEMRAAAARLRKGIEELLHHGMVE
B12: CAB1 (Saccharomyces cerevisiae, UniProt Q04430); chain MPRITQEISYNCDYGDNTFNLAIDIGGTLAKVVFSPIHSNRLMFYTIETEKIDKFMELLHSIIKEHNNGCYRMTHIIATGGGAFKFYDLLYENFPQIKGISRFEEMEGLIHGLDFFIHEIPDEVFTYNDQDGERIIPTSSGTMDSKAIYPYLLVNIGSGVSILKVTEPNNFSRVGGSSLGGGTLWGLLSLITGAQTYDQMLDWAQEGDNSSVDMLVGDIYGTDYNKIGLKSSAIASSFGKVFQNRMTSNKSLENNENKLYSSHESIEKNNGQMFKNPDICKSLLFAISNNIGQIAYLQAKINNIQNIYFGGSYTRGHLTTMNTLSYAINFWSQGSKQAFFLKHEGYLGAMGAFLSASRHSSTKKTST
B13: enzyme (Treponema denticola, UniProt Q73LY9); chain QTNGTMPKRKFVIAFHASVNTDKTGKNLIKELPDLQKRGINTLFLEIGYNYQWKSDPKLYNKYVLSETVAREIAAECRRLSIDLIPEINCLGHQSWENETFALLKAYPELDETPGLYPSNKDIYCRSLCSSNEKVYTILFGLIDEITEVFSVKKIHVGLDEVFLIGEDACPLCRGKDKAELFAGAVNRLYDHCVKKRGFTMYMWGDRLIDSEDEDSGYKGEYESSCNGTYPAVDLIPKDIIICDWHYDELERYGSIPYFLNKGFRVLPTSFKGIKAVNALIDYSLLYKDNPAMLGHMYTAWDNFTNKNLSRYKPMVKTIDKLKAGN
Chain of UniProt A6NK06 (whole entry, looked up): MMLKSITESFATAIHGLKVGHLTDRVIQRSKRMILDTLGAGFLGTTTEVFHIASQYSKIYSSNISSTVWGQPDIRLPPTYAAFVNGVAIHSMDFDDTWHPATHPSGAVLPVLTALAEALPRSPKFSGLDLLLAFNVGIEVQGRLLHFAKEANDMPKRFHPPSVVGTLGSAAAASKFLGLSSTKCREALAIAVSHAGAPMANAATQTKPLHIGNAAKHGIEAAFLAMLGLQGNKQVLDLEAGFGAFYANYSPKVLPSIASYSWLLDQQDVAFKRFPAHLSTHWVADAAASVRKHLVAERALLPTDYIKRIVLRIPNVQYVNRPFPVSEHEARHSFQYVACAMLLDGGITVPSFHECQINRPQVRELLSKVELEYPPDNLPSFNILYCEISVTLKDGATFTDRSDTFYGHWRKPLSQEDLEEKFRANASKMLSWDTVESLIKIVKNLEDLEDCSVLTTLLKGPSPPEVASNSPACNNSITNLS
Chain of UniProt P77488 (whole entry, looked up): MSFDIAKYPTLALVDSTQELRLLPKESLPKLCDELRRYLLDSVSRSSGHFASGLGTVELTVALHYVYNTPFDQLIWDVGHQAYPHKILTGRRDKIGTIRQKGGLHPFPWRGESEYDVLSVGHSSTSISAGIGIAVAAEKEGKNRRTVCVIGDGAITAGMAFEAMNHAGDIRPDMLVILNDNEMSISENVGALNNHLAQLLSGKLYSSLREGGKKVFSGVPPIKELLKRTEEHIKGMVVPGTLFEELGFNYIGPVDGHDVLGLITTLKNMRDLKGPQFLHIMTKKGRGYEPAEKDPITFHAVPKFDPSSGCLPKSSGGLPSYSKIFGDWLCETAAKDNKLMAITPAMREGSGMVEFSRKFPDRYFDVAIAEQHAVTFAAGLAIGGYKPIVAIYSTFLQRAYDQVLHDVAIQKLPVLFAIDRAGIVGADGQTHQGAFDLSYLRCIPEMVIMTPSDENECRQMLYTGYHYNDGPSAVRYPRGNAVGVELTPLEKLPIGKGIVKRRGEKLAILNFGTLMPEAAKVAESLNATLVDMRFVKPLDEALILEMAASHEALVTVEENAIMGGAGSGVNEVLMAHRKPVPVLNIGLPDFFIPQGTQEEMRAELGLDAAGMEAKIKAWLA

Molecule | substrate | conditions | Km
ACOD1 (Homo sapiens, UniProt A6NK06) | O=C(O)/C=C(/CC(=O)O)C(=O)O | – | 1080 µM
B1 (SCO6712 S292F) | CCn1c(=NN=c2sc3cc(S(=O)(=O)O)ccc3n2CC)sc2cc(S(=O)(=O)O)ccc21 | pH 7, 37 °C, NaCl 150 mM, added: O2 cosubstrate | 1700 µM
B2 (enzyme) | COc1cc(/C=C/CO)cc(OC)c1O | 27 °C | 143 µM
enzyme (Salvia miltiorrhiza, UniProt A0A0B4VRM0) | O=C(/C=C/c1ccc(O)cc1)O[C@H](Cc1ccc(O)c(O)c1)C(=O)O | pH 7.5, 30 °C, not purified | 678 µM
B3 (enzyme) | O=C(O)/C=C/C=C(\O)C(=O)O | pH 7.3, 24 °C | 140 µM
B4 (enzyme M389A) | CCn1c(=NN=c2sc3cc(S(=O)(=O)O)ccc3n2CC)sc2cc(S(=O)(=O)O)ccc21 | pH 3.7, 24 °C | 110 µM
spt R378K (Sphingomonas paucimobilis) | CCCCCCCCCCCCCC(=O)SCCNC(=O)CCNC(=O)[C@H](O)C(C)(C)COP(=O)(O)OP(=O)(O)OC[C@H]1O[C@@H](n2cnc3c(N)ncnc32)[C@H](O)[C@@H]1OP(=O)(O)O | added: PLP | 97 µM
enzyme (Thermothielavioides terrestris, UniProt G2R650) | Oc1ccc(/C=C/c2cc(O)cc(O)c2)cc1 | pH 8, 45 °C | 81 µM
B5 (enzyme) | O=P(O)(O)OC[C@H]1O[C@H](OP(=O)(O)OP(=O)(O)O)[C@H](O)[C@@H]1O | pH 7, room temperature, added: orotate 1 mM | 555 µM
B6 | O=C(O)C(=O)Cc1ccccc1 | pH 7.5, 25 °C, added: PMP 20 µM, ammonium acetate 10 mM | 620 µM
enzyme Y26F (Homo sapiens, UniProt Q08623) | O=c1[nH]cc([C@@H]2O[C@H](COP(=O)(O)O)[C@@H](O)[C@H]2O)c(=O)[nH]1 | pH 7, 25 °C | 2.3 µM
B7 (ART1) | COC(=O)[C@H](CCCNC(=N)N)NC(C)=O | pH 7.5, 25 °C, HEPES 50 mM, added: saturating NAD+ | 900 µM
B8 (enzyme) | O=C(CO)COP(=O)(O)O | pH 7.5, added: NADH 500 µM | 820 µM
B9 (Comt) | Cc1cc(=O)oc2c(O)c(O)ccc12 | pH 7.4, 37 °C, not purified | 1.7 µM
dxs (Escherichia coli, UniProt P77488) | O=C[C@H](O)COP(=O)(O)O | pH 8, 37 °C | 42 µM
B10 (enzyme) | O=C(O)O | pH 6.5, 25 °C | 6690 µM
enzyme N248Y/R246H (Arabidopsis thaliana, UniProt O24495) | C[C@@H](O)C(=O)SC[C@H](NC(=O)CC[C@H](N)C(=O)O)C(=O)NCC(=O)O | pH 7.2, 25 °C | 295 µM
B11 (enzyme) | O=C(O)C(=O)Cc1c[nH]c2ccccc12 | – | 710 µM and 402 µM
B12 (CAB1) | CC(C)(CO)[C@@H](O)C(=O)NCCC(=O)O | pH 7.4, 80 °C, added: ATP 1000 µM | 182 µM
B13 (enzyme) | CC(=O)N[C@H]1[C@H](Oc2ccc([N+](=O)[O-])cc2)O[C@H](CO)[C@@H](O[C@@H]2O[C@H](CO)[C@H](O)[C@H](O)[C@H]2O)[C@@H]1O | pH 6, 40 °C | 2080 µM

For quick reference, copied from above:
Molecule | substrate | conditions | Km
B2 (enzyme) | COc1cc(/C=C/CO)cc(OC)c1O | 27 °C | 143 µM
enzyme (Salvia miltiorrhiza, UniProt A0A0B4VRM0) | O=C(/C=C/c1ccc(O)cc1)O[C@H](Cc1ccc(O)c(O)c1)C(=O)O | pH 7.5, 30 °C, not purified | 678 µM
B3 (enzyme) | O=C(O)/C=C/C=C(\O)C(=O)O | pH 7.3, 24 °C | 140 µM
